Results from different studies.
A part holds a random share of what one study measured.

Series 1
Compound: COc1ccc2[nH]c3c4[nH]c5ccc(OC)cc5c4c4c(c3c2c1)C(=O)NC4=O
Tested at: 1 µM
Measurement: remaining binding
Testis-specific serine/threonine-protein kinase 1 (TSSK1B, Homo sapiens, UniProt Q9BXA7); competitive binding panel; reference: vehicle: 89%
Casein kinase II subunit alpha' (CSNK2A2, Homo sapiens, UniProt P19784); competitive binding panel; reference: vehicle: 56%
Phosphatidylinositol 4,5-bisphosphate 3-kinase catalytic subunit alpha isoform (PIK3CA, Homo sapiens, UniProt P42336, H1047L); competitive binding panel; reference: vehicle: 74%
Receptor-interacting serine/threonine-protein kinase 1 (RIPK1, Homo sapiens, UniProt Q13546); competitive binding panel; reference: vehicle: 90%
Tyrosine-protein kinase ABL1 (ABL1, Homo sapiens, UniProt P00519, F317L); competitive binding scan: 75%
Serine/threonine-protein kinase pim-1 (PIM1, Homo sapiens, UniProt P11309); competitive binding panel; reference: vehicle: 46%
Fibroblast growth factor receptor 3 (FGFR3, Homo sapiens, UniProt P22607); competitive binding panel; reference: vehicle: 93%

Series 2
Species: mouse
Sample: microsomes or S9
Tested at: 2 µM
Time: 0.5 h
Measurement: remaining compound
O=C(c1c(-c2ccccc2)cc(=O)n2c1CCC2)N1CCCC1: 94.2%
O=C(CCn1c(Cc2ccccc2F)nc2cc(Cl)c(Cl)cc21)NCCN1CCOCC1: 0.279%
CCOC(=O)C(Cc1ccccc1)(NC(C)=O)C(=O)OCC: 64.1%
COc1cc(OC)nc(OC(C(=O)N2CCOCC2)C(C)C)n1 (stereo not drawn): 87.3%
COc1ccc([N+](=O)[O-])cc1C(=O)Nc1cc(C(F)(F)F)cc(C(F)(F)F)c1: 74.4%
Cc1ccc(CN2C(=O)N(Cc3ccccc3)C(=O)C2CC(C)C)s1 (stereo not drawn): 1.32%
CO/C=C(/C(=O)OC)n1c(COc2c(C)cc(C)cc2C)noc1=O: 68.4%
O=C1CC2CS(=O)(=O)CC2N1c1ccc(-c2nnc3n2CCCCC3)cc1 (stereo not drawn): > 100%
Cc1c(Br)cc(S(=O)(=O)Nc2nnn(C)c2C)cc1C(=O)O: > 100%

Series 3
SMILES: c1ccc(N2CCN(Cc3nc4ccccc4[nH]3)CC2)nc1
Technique: competition with immobilised ligand
Tested at: 1 µM
Measurement: remaining binding
Serine/threonine-protein kinase MAK (MAK, Homo sapiens, UniProt P20794); binding: 100%
Tyrosine-protein kinase ZAP-70 (ZAP70, Homo sapiens, UniProt P43403); binding: 100%
Hormonally up-regulated neu tumor-associated kinase (HUNK, Homo sapiens, UniProt P57058); binding: 100%
Mitogen-activated protein kinase 15 (MAPK15, Homo sapiens, UniProt Q8TD08); binding: 100%
Casein kinase I isoform gamma-2 (CSNK1G2, Homo sapiens, UniProt P78368); cell-free assay: 100%
Tyrosine-protein kinase ABL1, phosphorylated (ABL1, Homo sapiens, UniProt P00519, Y253F); binding: 100%
Phosphatidylinositol 4,5-bisphosphate 3-kinase catalytic subunit alpha isoform (PIK3CA, Homo sapiens, UniProt P42336, E545A); cell-free assay: 87%
Protein-tyrosine kinase 2-beta (PTK2B, Homo sapiens, UniProt Q14289); cell-free assay: 100%
Cyclin-dependent kinase 11B (CDK11B, Homo sapiens, UniProt P21127); cell-free assay: 100%

Series 4
Structure (SMILES): CC(=O)O/N=C1/C(c2c(O)[nH]c3cc(Br)ccc23)=Nc2ccccc21
Observed: enzyme activity
Action: inhibitor
Tested at: 0.5 µM
Reference: control
Measurement: remaining activity
Mitogen-activated protein kinase 11 (MAPK11, Homo sapiens, UniProt Q15759): 83.4%
Serine/threonine-protein kinase PAK 3 (PAK3, Homo sapiens, UniProt O75914): 99.1%
Serine/threonine-protein kinase PLK3 (PLK3, Homo sapiens, UniProt Q9H4B4): 96.2%
Serine/threonine-protein kinase DCLK2 (DCLK2, Homo sapiens, UniProt Q8N568): 90.2%
Serine/threonine-protein kinase Nek3 (NEK3, Homo sapiens, UniProt P51956): 130%
Rho-associated protein kinase 1 (ROCK1, Homo sapiens, UniProt Q13464): 94.6%
Dual specificity protein kinase CLK4 (CLK4, Homo sapiens, UniProt Q9HAZ1): 94.1%
Calcium/calmodulin-dependent protein kinase type 1B (PNCK, Homo sapiens, UniProt Q6P2M8): 96.3%
Hepatocyte growth factor receptor (MET, Homo sapiens, UniProt P08581): 98.2%
Serine/threonine-protein kinase MARK2 (MARK2, Homo sapiens, UniProt Q7KZI7): 74.9%
Calcium/calmodulin-dependent protein kinase type IV (CAMK4, Homo sapiens, UniProt Q16566): 86.1%
Ribosomal protein S6 kinase alpha-4 (RPS6KA4, Homo sapiens, UniProt O75676): 97.6%
Vascular endothelial growth factor receptor 2 (KDR, Homo sapiens, UniProt P35968): 74.2%
Discoidin domain-containing receptor 2 (DDR2, Homo sapiens, UniProt Q16832): 89.8%
